Assay results pooled from the literature.
Protocols differ between the studies behind these lines. ± marks the error that the study gave.

Structure (SMILES) = COc1ccc(C)cc1NC(=O)OC1CC2CCCC(C1)N2Cc1ccc(CC[18F])cc1 (stereo not shown); system = mouse, bone; setting = 1 h, tumour-bearing; measurement = tracer uptake; value = 4.87 %ID/g
Structure (SMILES) = CSCC[C@H](NC(=O)[C@H](Cc1c[nH]c2ccccc12)NC(=O)CNC(=O)[C@H](Cc1ccc(O)cc1)NC(=O)[C@H](C)NC(=O)[C@H](CCC(=O)O)NC(=O)[C@H](Cc1c[nH]cn1)NC(=O)[C@H](Cc1c[nH]cn1)NC(=O)[C@H](Cc1c[nH]cn1)NC(=O)[C@H](Cc1c[nH]cn1)NC(=O)[C@H](Cc1c[nH]cn1)NC(=O)[C@H](Cc1c[nH]cn1)NC(=O)CN1CCN(CC(=O)O)CCN(CC(=O)O)CCN(CC(=O)O)CC1)C(=O)N[C@@H](CC(=O)O)C(=O)N[C@@H](Cc1ccccc1)C(N)=O; system = MF1 nude mouse, male, CA20948 xenograft; setting = intravenous, 0.2 µg, 4 h, 111In-labelled; how to read = baseline: tumour over kidney; measurement = tumour-to-kidney ratio; value = 0.18
Structure (SMILES) = CN(C)C(CNC(=O)Nc1cc(C(F)(F)F)ccc1N1CCOCC1)c1ccncc1 (stereo not shown); system = mouse, serum; setting = intraperitoneal, 180 mg/kg single dose; measurement = serum albumin; value = 2.8 g/dL
Structure (SMILES) = CCCCCCCC/C=C\CCCCCCCCOP(O)(O)=S.N; system = mouse, male, irradiated; setting = subcutaneous, single dose 24 h after irradiation, together with: 15.6 Gy partial-body irradiation; measurement = CL/F; value = 581 mL/h/kg
Structure (SMILES) = O=c1c(Br)c2oc3c(CN(Cc4ccccn4)Cc4ccccn4)c(O)ccc3nc-2c2ccccc12; assay = fluorescence; setting = first pKa; measurement = pKa; value = 5.08
Structure (SMILES) = COc1cc(C(=O)NCCOCCOCCOCCNC(=O)c2ccc([18F])nc2)ccc1NC(=O)C1NC(CC(C)(C)C)C(C#N)(c2ccc(Cl)cc2F)C1c1cccc(Cl)c1F (stereo not shown); system = athymic male mice, SJSA-1 xenograft; setting = 2 h; how to read = baseline: tumour over liver; measurement = tumour-to-tissue ratio; value = 0.73 ± 0.21
Structure (SMILES) = CC(C)[C@H](NC(=O)CNC(=O)[C@H](CCC(N)=O)NC(=O)[C@H](C)N)C(=O)O; system = human; setting = single dose, 10 mg/kg; measurement = possibly related adverse events; value = 0%
Structure (SMILES) = CC[C@H](C)[C@H](NC(=O)[C@H](CCCCN)NC(=O)CNC(=O)[C@H](CC(C)C)NC(=O)[C@@H](NC(=O)[C@H](C)NC(=O)[C@H](CCCCN)NC(=O)CNC(=O)[C@H](C)NC(=O)CNC(=O)[C@H](CCCCN)NC(=O)[C@H](CCSC)NC(=O)[C@H](CCCCN)NC(=O)[C@@H](NC(=O)[C@H](Cc1c[nH]c2ccccc12)NC(=O)[C@H](CC(C)C)NC(=O)[C@H](CCC(=O)O)NC(=O)[C@H](CCCCN)NC(=O)[C@H](CC(C)C)NC(=O)[C@@H](N)CC(C)C)[C@@H](C)O)C(C)C)C(=O)N[C@@H](CCCCN)C(=O)NCC(=O)N[C@@H](CC(C)C)C(=O)N[C@@H](CC(C)C)C(=O)O; assay = acrylamide quenching; system = DOPC:DOPG 3:1 vesicles; setting = 2 µM, 250 µM total lipid, together with: acrylamide; measurement = Stern-Volmer constant; value = 2.08 ± 0.27 M⁻¹
Structure (SMILES) = C=C1C(=O)OC2C1CCC(Cn1cc(-c3cc(C(F)(F)F)cc(C(F)(F)F)c3)nn1)=C1CCC(C)(O)C12 (stereo not shown); assay = flow cytometry; system = mouse, bone marrow; setting = dose not given; measurement = long-term HSC number; value = no effect
Structure (SMILES) = CC(C)C[C@@H](NC(=O)[C@@H](Cc1ccccc1)NC(=O)[C@H](N)Cc1ccccc1)C(=O)N[C@H](CCCCN)C(=O)N1CCC(N)(C(=O)O)CC1; system = human, plasma; setting = intravenous, 15 µg/kg; measurement = volume of distribution; value = 0.171 L/kg
Structure (SMILES) = CC[C@H](C)C(=O)N1CCC(NC(=O)Nc2ccc(OC(F)(F)F)c(F)c2)CC1; system = human, plasma; setting = oral, 16 mg, single dose, healthy volunteers; measurement = Cmax; value = 220 ng/mL
Structure (SMILES) = c1ccc(C2(CCNC3CCC4(SCCS4)c4ccccc43)CCOC3(CCCC3)C2)nc1 (stereo not shown); system = rat plasma; measurement = unbound fraction; value = 0.0055
Structure (SMILES) = CC(CCC(=O)NCC(=O)O)C1CCC2C3C(O)CC4CC(OC5OC(C(=O)O)C(O)C(O)C5O)CCC4(C)C3CCC12C (stereo not shown); system = human, C/C genotype, plasma; setting = dose not given, geometric mean, sex-adjusted; measurement = glucuronide to parent ratio; value = 0.42
Structure (SMILES) = N=C(N)NCc1ccc(C(=O)NCCCC[C@H](NC(=O)N[C@@H](CCC(=O)O)C(=O)O)C(=O)O)cc1[131I]; system = SCID mouse, PC-3 xenografts, thyroid; setting = 21 h; measurement = tissue uptake; value = 0.19 ± 0.06 %ID/g
Structure (SMILES) = CN[C@](C)(C[18F])C(=O)O; system = SCID mouse DU-145 xenograft, heart; setting = 30 min post injection; measurement = tissue uptake; value = 2.9 ± 0.4 %ID/g
Structure (SMILES) = CCC(=C(c1ccc(Cl)cc1)c1ccc(OCCN2CCOCC2)cc1)c1ccc(OC)cc1; system = C57BL/6 mice, plasma; setting = oral, 400 mg/kg; how to read = baseline: male over female; measurement = AUC(0-last) ratio; value = 2.2 fold
Structure (SMILES) = CC(=CCC(O)C(C)=Cc1csc(C)n1)CC=CC(C)C(O)C(C)C(=O)C(C)(C)C(O)CC(=O)O (stereo not shown); system = human, plasma; setting = intravenous infusion, 36 mg/m2 KOS-1584, 3 h infusion, cycle 1; measurement = half-life; value = 31 ± 16 h
Structure (SMILES) = CCCCCCCC(=O)OC[C@H](NC(=O)[C@H](CO)NC(=O)CN)C(=O)N[C@@H](Cc1ccccc1)C(=O)N[C@@H](CC(C)C)C(=O)N[C@@H](CO)C(=O)N1CCC[C@H]1C(=O)N[C@@H](CCC(=O)O)C(=O)N[C@@H](Cc1cnc[nH]1)C(=O)N[C@@H](CCC(N)=O)C(=O)N[C@@H](CCCNC(=N)N)C(=O)N[C@H](C(=O)N[C@@H](CCC(N)=O)C(=O)N[C@@H](CCC(N)=O)C(=O)N[C@@H](CCCNC(=N)N)C(=O)N[C@@H](CCCCN)C(=O)N[C@@H](CCC(=O)O)C(=O)N[C@@H](CO)C(=O)N[C@@H](CCCCN)C(=O)N[C@@H](CCCCN)C(=O)N1CCC[C@H]1C(=O)N1CCC[C@H]1C(=O)N[C@@H](C)C(=O)N[C@@H](CCCCN)C(=O)N[C@@H](CC(C)C)C(=O)N[C@@H](CCC(N)=O)C(=O)N1CCC[C@H]1C(=O)N[C@@H](CCCNC(=N)N)C(=O)O)C(C)C; assay = ELISA; system = human, both sexes, plasma; setting = intravenous infusion, 5 µg/kg/h, 65 min infusion; measurement = AUC(0-90); value = 14.9 ± 2.9 ng·h/mL
Structure (SMILES) = COCCOCCOCCOc1ccc(/C=C/c2c(I)c(C)c3n2[B-](F)(F)[N+]2=C(C)C(I)=C(C)C2=C3c2cc(OC)cc(OC)c2)cc1; system = dichloromethane; how to read = baseline: methylene blue; measurement = fluorescence quantum yield; value = 0.3
Structure (SMILES) = COc1cc2ccnc(Cc3ccc(O[11CH3])c(OC)c3)c2cc1OC; system = Sprague-Dawley rat, striatum; setting = i.v., 30 min; measurement = brain uptake; value = 0.051 %ID/g
Structure (SMILES) = CC[C@@H]1C[C@]1(NC(=O)[C@@H]1C[C@@]2(CN1C(=O)[C@@H](NC(=O)[C@@H](NC(=O)[C@@H]1CCCCN1C(C)C)C1CCCCC1)C(C)(C)C)C(C)(C)C21CCC1)C(=O)NS(=O)(=O)N1CCCC1; assay = item: Diarrhea; system = healthy human; setting = oral, 50 mg, together with: ritonavir 100 mg; measurement = subjects with adverse event; value = 0%
Structure (SMILES) = CC[C@@H](C)[C@@H](NC(=O)[C@@H](C)NC(=O)[C@@H](CCCCN)NC(=O)[C@@H](CC(C)C)NC(=O)[C@@H](C)NC(=O)[C@H](NC(=O)[C@@H](Cc1c[nH]cn1)NC(=O)[C@@H](CC(C)C)NC(=O)[C@H](NC(=O)[C@H](NC(=O)[C@@H](CCCCN)NC(=O)[C@@H](CCCCN)NC(=O)[C@@H](C)NC(=O)[C@@H](CO)NC(=O)[C@@H](CCCCN)NC(=O)[C@@H](Cc1ccccc1)NC(=O)[C@H](NC(=O)[C@@H](CCCCN)NC(=O)[C@@H](CC(C)C)NC(=O)[C@@H](Cc1ccccc1)NC(=O)[C@@H](CO)NC(=O)[C@@H](CCCCN)NC(=O)[C@@H](Cc1c[nH]c2ccccc12)NC(=O)[C@@H](CCCCN)NC(C)=O)[C@H](C)O)[C@H](C)O)C(C)C)[C@H](C)O)C(=O)N[C@H](CO)C(=O)N[C@H](CO)C(N)=O; assay = RP-HPLC C8; setting = pH 2; measurement = retention time; value = 76.8 min
Structure (SMILES) = CC(C)[C@H](NC(=O)[C@@H](NC(=O)[C@H](CCCNC(=N)N)NC(=O)[C@H](CCCNC(=N)N)NC(=O)[C@H](CCCNC(=N)N)NC(=O)[C@H](CCC(N)=O)NC(=O)[C@H](CCCNC(=N)N)NC(=O)[C@H](CCCNC(=N)N)NC(=O)[C@H](CCCCN)NC(=O)[C@H](CCCCN)NC(=O)[C@H](CCCNC(=N)N)NC(=O)CN)[C@@H](C)O)C(=O)N[C@H](C(=O)N[C@@H](CO)C(=O)N1CCC[C@H]1C(=O)O)[C@@H](C)O; system = mouse ICR, male; setting = intranasal, 500 mg/kg single; measurement = day of death; value = 13 days
Structure (SMILES) = CSCC[C@H](NC(=O)CNC(=O)[C@H](CC(=O)O)NC(=O)[C@@H](NC(=O)[C@@H](NC(=O)[C@@H](NC(=O)CNC(=O)[C@H](CCC(N)=O)NC(=O)[C@H](CCSC)NC(=O)[C@H](CC(=O)O)NC(=O)[C@H](C)NC(=O)[C@H](C)NC(=O)[C@@H](NC(=O)[C@H](CO)NC(=O)[C@@H](N)CC(C)C)[C@@H](C)O)C(C)C)C(C)C)[C@@H](C)O)C(=O)N[C@@H](C)C(=O)N[C@@H](CO)C(=O)NCC(=O)N[C@@H](CC(C)C)C(=O)N[C@@H](CC(=O)O)C(=O)N[C@@H](CCCCN)C(=O)N[C@@H](CC(=O)O)C(=O)N[C@@H](Cc1ccc(O)cc1)C(=O)N[C@@H](CC(C)C)C(=O)N[C@@H](CCCCN)C(=O)N1CCC[C@H]1C(=O)N[C@@H](CC(=O)O)C(=O)N[C@@H](CC(=O)O)C(=O)O; system = human patients, serum; setting = intravenous infusion, 1 mg/kg; measurement = distribution half-life; value = 8.64 min
Structure (SMILES) = CC[C@H](C)[C@H](NC(=O)[C@H](CCC(=O)O)NC(=O)[C@H](CCC(=O)O)NC(=O)[C@H](Cc1ccccc1)NC(=O)[C@H](CC(=O)O)NC(=O)CNC(=O)[C@H](CC(N)=O)NC(=O)CNC(=O)CNC(=O)CNC(=O)CNC(=O)[C@@H]1CCCN1C(=O)[C@H](CCCNC(=N)N)NC(=O)[C@@H]1CCCN1C(=O)[C@H](N)Cc1ccccc1)C(=O)N1CCC[C@H]1C(=O)N[C@@H](CCC(=O)O)C(=O)N[C@@H](CCC(=O)O)C(=O)N[C@@H](Cc1ccc(O)cc1)C(=O)N[C@@H](CC(C)C)C(=O)O; assay = LC-MS/MS; system = processed plasma samples; setting = 7 h, autosampler stability, nominal 3.0 ng/mL; measurement = concentration; value = 2.95 ± 0.1 ng/mL
Structure (SMILES) = C=Cc1cc(O)cc2nc(-c3ccc(O)c([76Br])c3)oc12; system = female C57BL/6 mouse, uterus; setting = 6 h, high dose; measurement = tissue uptake; value = 0.09 ± 0.03 %ID/g
Structure (SMILES) = C[C@@H]1CC[C@H]2[C@@H](C)CO[C@@H]3O[C@@]4(C)CC[C@@H]1[C@]32OO4; system = male Sprague-Dawley rat, plasma; setting = intravenous, 5 mg/kg; measurement = AUC(0-inf); value = 605 ng·h/mL
Structure (SMILES) = CCCCCOc1ccc(-c2cc(-c3ccc(C(=O)N[C@H]4C[C@@H](O)[C@@H](O)NC(=O)[C@@H]5[C@@H](O)[C@@H](C)CN5C(=O)[C@H]([C@H](O)CC(N)=O)NC(=O)[C@H]([C@H](O)[C@@H](O)c5ccc(O)c(O)c5)NC(=O)[C@@H]5C[C@@H](O)CN5C(=O)[C@H]([C@@H](C)O)NC4=O)cc3)no2)cc1; system = human normal hepatic function, plasma; setting = intravenous, up to 16 h, concentration below limit; measurement = lower limit of quantification; value = < 0.05 µg/mL
